Published values collected from several papers.
Numbered parts are unrelated; each lists some results of a single study.

Set 1 — method: protein-binding microarray; form: hairpin DNA; matrix: in vitro; tested at: not given; relative to: not given; reading: higher = stronger binding
Target: Protein C-ets-1, full length (ETS1, Homo sapiens, UniProt P14921, residues 1-441)
Setting: whole hairpin DNA, median over replicate spots
Residues (chain): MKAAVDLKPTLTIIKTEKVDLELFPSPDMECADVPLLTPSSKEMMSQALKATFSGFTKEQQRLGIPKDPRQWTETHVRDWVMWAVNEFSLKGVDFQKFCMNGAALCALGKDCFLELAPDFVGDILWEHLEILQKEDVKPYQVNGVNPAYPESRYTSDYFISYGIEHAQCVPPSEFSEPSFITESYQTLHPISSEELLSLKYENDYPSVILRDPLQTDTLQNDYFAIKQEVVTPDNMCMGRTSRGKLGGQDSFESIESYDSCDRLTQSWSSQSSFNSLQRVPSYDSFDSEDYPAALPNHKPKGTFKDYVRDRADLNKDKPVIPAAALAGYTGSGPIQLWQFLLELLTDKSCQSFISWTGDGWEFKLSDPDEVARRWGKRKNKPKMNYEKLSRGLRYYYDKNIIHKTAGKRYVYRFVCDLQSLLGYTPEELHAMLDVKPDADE
Sequence | median fluorescence
GAGGCCAGTCGGAACTTGCCTCCTGGCAAGTTCCGACTGGCCTCACACTC (5mC at 15) | 700 a.u.
GAGGCCAGCCTGAAGTTGCCTCCTGGCAACTTCAGGCTGGCCTCACACTC | 524 a.u.
GAGGCCAGTGGGAAGTTGCCTCCTGGCAACTTCCCACTGGCCTCACACTC (5mC at 35) | 1260 a.u.
GAGGCCAGTCGTAAGTTGCCTCCTGGCAACTTACGACTGGCCTCACACTC | 552 a.u.
GAGGCCCGTCGGAAGTTGCCTCCTGGCAACTTCCGACGGGCCTCACACTC | 2950 a.u.
GAGGCCAGTCGCAAGTTGCCTCCTGGCAACTTGCGACTGGCCTCACACTC | 520 a.u.
GAGGCCAGCCGGAAGCGGCCTCCTGGCCGCTTCCGGCTGGCCTCACACTC (5mC at 28) | 5730 a.u.
GAGGCCAGCCGGCGGTTGCCTCCTGGCAACCGCCGGCTGGCCTCACACTC (5mC at 13) | 551 a.u.
GAGGCCAGTCGCGAGTTGCCTCCTGGCAACTCGCGACTGGCCTCACACTC (5mC at 12) | 551 a.u.
GAGGCCAGTCGGAACTTGCCTCCTGGCAAGTTCCGACTGGCCTCACACTC | 829 a.u.
GAGGCCAGCCGGAAGTTGCCTCCTGGCAACTTCCGGCTGGCCTCACACTC (5mC at 37) | 9860 a.u.
GAGGCCAGTCAGAAGTTGCCTCCTGGCAACTTCTGACTGGCCTCACACTC | 549 a.u.

Set 2 — method: RNA Bind-n-Seq; form: RNA; matrix: in vitro; tested at: 1 µM; setting: whole 134-nt RNA, ends assumed; together with: 150 mM KCl; relative to: input library; reading: higher = stronger binding
Target: Ras GTPase-activating protein-binding protein 1, RRM domain (G3BP1, Homo sapiens, UniProt Q13283)
Sequence of UniProt Q13283 (whole entry, looked up): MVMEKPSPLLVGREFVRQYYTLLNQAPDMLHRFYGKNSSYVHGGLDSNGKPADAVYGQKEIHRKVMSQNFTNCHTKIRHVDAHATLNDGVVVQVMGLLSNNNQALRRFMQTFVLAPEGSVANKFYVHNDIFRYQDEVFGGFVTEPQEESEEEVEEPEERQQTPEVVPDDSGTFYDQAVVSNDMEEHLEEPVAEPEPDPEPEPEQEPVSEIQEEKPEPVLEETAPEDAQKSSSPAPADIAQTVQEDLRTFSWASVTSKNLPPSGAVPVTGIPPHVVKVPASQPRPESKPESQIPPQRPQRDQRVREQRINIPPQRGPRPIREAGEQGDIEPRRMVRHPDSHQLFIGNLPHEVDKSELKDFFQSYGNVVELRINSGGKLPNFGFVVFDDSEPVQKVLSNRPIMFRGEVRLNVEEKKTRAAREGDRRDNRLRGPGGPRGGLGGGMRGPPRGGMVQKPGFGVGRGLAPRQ
Sequence | log2 enrichment
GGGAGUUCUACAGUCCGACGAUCAAGUCCUGUGCUACACAUCGUAUGUACCGAAUCGGAAAAAGGUUUGGUUUUUUUGGAAAGUAUUAUGUUACGCCGUUCGGAUCUGCACUUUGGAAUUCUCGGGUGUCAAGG | -0.307
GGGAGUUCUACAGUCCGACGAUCCCUCAAGUCCUGUGCUACACAUCGUAUGUACCGAAUCGGUGGAAAAAGGAGGAAAGUAUUAUGUUACGCCGUUCGGAUCUGCACUUCCAGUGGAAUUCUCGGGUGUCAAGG | -0.117
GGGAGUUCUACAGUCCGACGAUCUGGGAGGUGGAUUUUGUUUAUUUUUUUAGCUCAUUUCCAGGGGUGGGAAUUUUUUUAUAAUAUGUGUCAUGAAUAAAGUUGUUUUUGAAAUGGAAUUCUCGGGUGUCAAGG | 1.41
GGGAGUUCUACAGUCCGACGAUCGGUAGCAAGAGCUCCAGAGAGAAGUCGAGGAAGAGAGAGACGGGGUCAGAGAGAGCGCGCGGGCGUGCGAGCAGCGAAAGCGACAGGGGCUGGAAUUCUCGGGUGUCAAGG | -0.265
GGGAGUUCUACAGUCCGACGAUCGCAGGAAGUAAAAACAAAUGGAAAUGCUUCGGAUAGUGGUAGGGGUGGGGGUUGCUAAGGAAAGGGUGGGAUGGGAGUGGGUAAAGAGUUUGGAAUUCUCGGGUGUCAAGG | 1.31
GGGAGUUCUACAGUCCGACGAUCCACAGACAACACGCACCCACACAGACACAGAGGGAAGGGGUUGGGAUGGGGACAGGGUGCAAAGCAGGGCGGGGUAGGACCCCAGCCCCUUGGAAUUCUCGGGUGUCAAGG | -0.13
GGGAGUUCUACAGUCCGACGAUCACCAUGCAGGUGGGCAUCUUUGGGAAGUGGGGCAAAGGGGGGAUAGGGAGGGGGGUAACACUUUGGGAACAGGUGGUCCCAGGUCGUUUCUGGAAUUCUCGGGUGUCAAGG | -0.371
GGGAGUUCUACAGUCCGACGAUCUGGUGUUAUUUUUGCACUACAAGGGCUCUGAAGACUGCCAGGCUUGAAAUGAAGAACGAUGUCACCUGCCUAUCACAGCCAGGUGACAAUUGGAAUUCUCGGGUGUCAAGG | -0.661
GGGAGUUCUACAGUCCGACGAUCGUCCUGUGCUACACAUCGUAUGUACCGAAUCGGUUUUUUGGUUUUUUGGUUUUUUGGGGAAAGUAUUAUGUUACGCCGUUCGGAUCUGCAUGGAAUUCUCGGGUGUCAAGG | -0.214
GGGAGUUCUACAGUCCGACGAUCGCAGGAAGUUAAAACAAAUGGAAAUGCUUCGGAUAGUGGCAGGGGUGGGGGUUGCUAAGGAAAGGGUGGGAUGGGAGUGGGUAAAGAGUUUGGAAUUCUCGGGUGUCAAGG | 1.23

Set 3 — method: aptamer microarray, sandwich; form: DNA with 2'F-ANA; matrix: in vitro; tested at: 200 nM; together with: Cy3 exosite-II aptamer, 400 nM; reading: higher = stronger binding; sequence: GGTTGGTGTGGTTGG
Target: Prothrombin, mature alpha-thrombin (F2, Homo sapiens, UniProt P00734)
Setting: whole 15-mer aptamer, many near background
Modification | mean fluorescence intensity [a.u.]
2'F-ANA at 1 3 6 10 11 12 15 | 99.2
2'F-ANA at 2 3 4 5 8 11 12 13 15 | 98.5
2'F-ANA at 2 4 5 8 9 10 11 13 15 | 48.1
2'F-ANA at 1 2 4 6 7 9 12 14 15 | 57
2'F-ANA at 1 2 3 4 5 7 8 9 11 12 14 | 59.9
2'F-ANA at 3 5 6 7 9 10 14 | 48.5
2'F-ANA at 1 2 3 4 6 7 8 11 12 14 15 | 75.8
2'F-ANA at 5 6 9 11 13 | 69.1
2'F-ANA at 1 2 3 7 8 9 10 13 | 64.3
2'F-ANA at 2 6 7 8 10 11 13 14 | 99.8
2'F-ANA at 1 4 6 7 8 9 15 | 138
2'F-ANA at 1 3 4 5 7 8 9 12 13 | 81.1
2'F-ANA at 1 4 5 7 8 10 11 12 13 15 | 46
2'F-ANA at 1 3 4 5 9 10 12 | 49.7
2'F-ANA at 2 3 6 8 10 12 | 413
2'F-ANA at 3 5 7 9 12 | 240
2'F-ANA at 1 2 4 6 8 12 14 | 76.5
2'F-ANA at 1 5 6 7 8 9 10 11 12 14 | 50.2

Set 4 — method: RNA Bind-n-Seq; form: RNA; matrix: in vitro; tested at: not given; relative to: input RNA pool; reading: higher = stronger binding
Target: RING finger protein unkempt homolog, zinc fingers 1-6, GST-SBP tag (UNK, Homo sapiens, UniProt Q9C0B0, residues 30-357)
Sequence of UniProt Q9C0B0 (30-357, looked up): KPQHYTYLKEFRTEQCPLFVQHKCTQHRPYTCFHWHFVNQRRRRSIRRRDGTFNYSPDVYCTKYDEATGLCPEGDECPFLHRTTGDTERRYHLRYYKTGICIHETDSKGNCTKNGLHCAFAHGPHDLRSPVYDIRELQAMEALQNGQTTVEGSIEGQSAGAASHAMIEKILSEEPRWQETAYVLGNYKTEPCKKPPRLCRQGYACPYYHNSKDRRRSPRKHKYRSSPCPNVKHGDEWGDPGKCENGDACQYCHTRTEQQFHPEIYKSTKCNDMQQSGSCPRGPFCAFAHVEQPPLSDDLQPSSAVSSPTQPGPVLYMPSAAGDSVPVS
Setting: RNA with constant flanks, human-mouse chimeric sites, ends assumed
Sequence | bound/input enrichment
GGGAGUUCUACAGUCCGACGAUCUUCUAGUGAAUCUGUGAUAUUGGCAAUUAUUAUUAUGGCCAGGGUCAUCCCAUGAAGCCUCAUAGAAUCCGGAUGACUCAUAACUUGCUGCUAAAUUAUGGUUUAUACCGAAAAAUGGAACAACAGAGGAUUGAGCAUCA | 0.295 ratio
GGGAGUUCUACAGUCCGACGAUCGGGACUGAUUCAUCCCAAGGACAGGCAACCCCAUUUGAUGCCUGGACUGAUGACAGUAUGGAAGGGCCUAGUCAAAAUUUUGAAGCUGAGUCAAUUCAGGAUGCCAUGAGUAUGGAAGAGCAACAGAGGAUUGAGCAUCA | 0.436 ratio
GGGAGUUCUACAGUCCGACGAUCGUCAACAGUUGUCUCAACCCCAUCCUCUACGCCUUCCUGGAUGAGAACUUCAAGGCCUGCUUUAGAAAGUUCUGCUGUGCAUCUGCCCUGCGCCGGGACGUGCAGGUGUCUGACCGCGUGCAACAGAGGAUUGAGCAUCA | 0.447 ratio
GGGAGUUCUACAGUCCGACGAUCUUACCCGAGAACGAGGAUGAGCUGGAGAGCACCAACAGACGCUAUACCAAGAGAGACUGCAGCACUUUCCUCAGAACUAGUGAGACGGGCAUCGUGGACCAGGUCAUGGUCACUCUCAACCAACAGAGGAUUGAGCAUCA | 0.184 ratio
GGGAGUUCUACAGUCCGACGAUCUAAGUUAUUUUGUACAGCUUUGUAAAUUCUUAACAUUUUUAUAUUGCACAUUUUAUGUUGUUUGGGUAAUUUGGUUCAUACAUGGCCUAGCUAAGGUAAUGAACAUCUUUUUCAGUAAUUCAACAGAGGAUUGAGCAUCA | 0.517 ratio
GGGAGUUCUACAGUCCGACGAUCAAUUUCCGCAACUGUUUUUUAGACAUUCACAUCAGACUUACAGAGCACCUGGCCACAUUCUAGGUUUGUGUUAUUUCUCAGCUAUGGGGGUAUGAUUAUGAGAACACUGCUUAACUAAUGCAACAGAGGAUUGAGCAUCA | 0.917 ratio
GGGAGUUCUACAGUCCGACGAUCAGAAUCUUGGGACUGUUUUACUUAAUUGGUCAUUGAUAGCUUAACAAACAUGGAGAUAAGAUUAGAAGUUUUGACAUCAACAGGUAUUAAGCAGAAAAAACCAUGGCCCAGAGUAUCCUGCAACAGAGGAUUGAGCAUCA | 0.286 ratio
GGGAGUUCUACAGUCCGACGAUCAAUGUUCUUAAUAUUUUUAAAGGAAGCAAGCUAAAAUGUCUGCUUUUGGUACAACACGCAUUAAUAAAAGGUUAAGUUUUGUUUUCCACUGAAGUACUAUUUAACAUCUCAGAAAAAAACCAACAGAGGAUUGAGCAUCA | 0.199 ratio
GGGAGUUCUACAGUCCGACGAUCUGUGAACUGAAAGGUGUGAUCUAAAAACAAGAUGACUUUUCCUGGCACAUAUUCCAAAGCAAAGACUUUGUUGCCUGCUGCUUCUUGUCUAAUUUACAGGGAUAUUUAAUUUUGUCAGGUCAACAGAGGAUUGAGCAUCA | 0.141 ratio
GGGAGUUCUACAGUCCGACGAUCGUAUACGGUUAUCGAGGAAAGGACUGUAGAGCGAAUGUUUACCUUCUUCCCACAGGGAAAAUAGUUUAUUUUAUCGCCUCAGUGGUAGUCCUGUUUAAUUAUGAGGAGAGGACUCAGCGACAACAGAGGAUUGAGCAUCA | 8.09 ratio
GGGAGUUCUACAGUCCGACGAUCAAAGCCCAAGUAUUUUGAAAAAACUCGAACAGAUUUAACAAGGGUAGCCAGCUUGGAGUCUAGCAACUUGCCAAUGUGUUUACCAAUCUGGGGGCUUUGUUUUUCUUUCUUCUUUCAAAUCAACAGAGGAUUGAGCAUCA | 0.275 ratio

Repeated from above (set 4):
Sequence | bound/input enrichment
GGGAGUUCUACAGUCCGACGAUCUUCUAGUGAAUCUGUGAUAUUGGCAAUUAUUAUUAUGGCCAGGGUCAUCCCAUGAAGCCUCAUAGAAUCCGGAUGACUCAUAACUUGCUGCUAAAUUAUGGUUUAUACCGAAAAAUGGAACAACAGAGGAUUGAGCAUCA | 0.295 ratio
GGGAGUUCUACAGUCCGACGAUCAAUUUCCGCAACUGUUUUUUAGACAUUCACAUCAGACUUACAGAGCACCUGGCCACAUUCUAGGUUUGUGUUAUUUCUCAGCUAUGGGGGUAUGAUUAUGAGAACACUGCUUAACUAAUGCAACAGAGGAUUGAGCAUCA | 0.917 ratio
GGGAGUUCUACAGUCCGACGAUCGGGACUGAUUCAUCCCAAGGACAGGCAACCCCAUUUGAUGCCUGGACUGAUGACAGUAUGGAAGGGCCUAGUCAAAAUUUUGAAGCUGAGUCAAUUCAGGAUGCCAUGAGUAUGGAAGAGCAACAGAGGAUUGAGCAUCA | 0.436 ratio
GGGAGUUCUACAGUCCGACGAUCAGAAUCUUGGGACUGUUUUACUUAAUUGGUCAUUGAUAGCUUAACAAACAUGGAGAUAAGAUUAGAAGUUUUGACAUCAACAGGUAUUAAGCAGAAAAAACCAUGGCCCAGAGUAUCCUGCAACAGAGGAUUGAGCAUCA | 0.286 ratio
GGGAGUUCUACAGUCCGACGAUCGUCAACAGUUGUCUCAACCCCAUCCUCUACGCCUUCCUGGAUGAGAACUUCAAGGCCUGCUUUAGAAAGUUCUGCUGUGCAUCUGCCCUGCGCCGGGACGUGCAGGUGUCUGACCGCGUGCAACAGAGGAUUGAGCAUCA | 0.447 ratio
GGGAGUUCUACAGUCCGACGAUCUAAGUUAUUUUGUACAGCUUUGUAAAUUCUUAACAUUUUUAUAUUGCACAUUUUAUGUUGUUUGGGUAAUUUGGUUCAUACAUGGCCUAGCUAAGGUAAUGAACAUCUUUUUCAGUAAUUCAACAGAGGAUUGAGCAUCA | 0.517 ratio
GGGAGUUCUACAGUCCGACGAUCUGUGAACUGAAAGGUGUGAUCUAAAAACAAGAUGACUUUUCCUGGCACAUAUUCCAAAGCAAAGACUUUGUUGCCUGCUGCUUCUUGUCUAAUUUACAGGGAUAUUUAAUUUUGUCAGGUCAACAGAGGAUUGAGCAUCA | 0.141 ratio
